Measured values from different studies.
A part holds a random share of what one study measured.

Series 1 — technique: RNA Bind-n-Seq; form: RNA; matrix: in vitro; tested at: 200 nM; setting: whole 134-nt RNA, ends assumed; with: 150 mM LiCl; relative to: input library; reading: higher = stronger binding; endpoint: log2 enrichment; all molecules: 7-deaza-guanosine replaces G
Target: Ras GTPase-activating protein-binding protein 1, full length (G3BP1, Homo sapiens, UniProt Q13283)
Sequence of UniProt Q13283 (whole entry, looked up): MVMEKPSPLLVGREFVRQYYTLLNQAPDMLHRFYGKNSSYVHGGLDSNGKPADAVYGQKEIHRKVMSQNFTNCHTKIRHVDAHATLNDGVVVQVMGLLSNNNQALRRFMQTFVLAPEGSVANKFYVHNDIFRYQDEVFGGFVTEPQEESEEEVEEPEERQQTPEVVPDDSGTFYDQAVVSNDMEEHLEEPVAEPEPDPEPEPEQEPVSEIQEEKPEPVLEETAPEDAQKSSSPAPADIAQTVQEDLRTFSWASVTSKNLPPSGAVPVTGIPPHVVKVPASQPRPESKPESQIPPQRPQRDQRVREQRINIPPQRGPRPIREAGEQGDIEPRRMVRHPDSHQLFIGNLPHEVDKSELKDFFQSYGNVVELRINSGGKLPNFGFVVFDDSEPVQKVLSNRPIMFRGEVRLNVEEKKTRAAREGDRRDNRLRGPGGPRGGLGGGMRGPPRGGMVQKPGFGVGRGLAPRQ
Shared flanks, not repeated: GGGAGUUCUACAGUCCGACGAUC … UGGAAUUCUCGGGUGUCAAGG
AAGUCCUGUGCUACACAUCGUAUGUACCGAAUCGGGGUUUGGGGUGGGGUUUGGGGAAAGUAUUAUGUUACGCCGUUCGGAUCUGCACUU: -0.157
UGGGAGGUGGAUUUUGUUUAUUUUUUUAGCUCAUUUCCAGGGGUGGGAAUUUUUUUUUAAUAUGUGUCAUGAAUUAAGUUGUUUUUGAAA: -0.0881
CCUGUGCUACACAUCGUAUGUACCGAAUCGGGUUUUUUGGGUUUUUUGGGGUUUUUUGGGAAAGUAUUAUGUUACGCCGUUCGGAUCUGC: 0.37
AUCAUGCAGGUGGGCAUCUUUGGGAAGUGGGGCAAGGGGGGGAUAGGGAGGGGGGUAACACUUUGGGAACAGGUGGUCCCAGGUCGUUUC: 0.258
UCCUGUGCUACACAUCGUAUGUACCGAAUCGGGUUUUUUGGGGUUUUUUGGUUUUUUGGAAAGUAUUAUGUUACGCCGUUCGGAUCUGCA: 0.588
UGGCCCUGGUGGCGUGCGGGGAGGAAGAGGUGGCCUCAUGGAUCGUGGUGGUCCCGGUGGAAUGUUCAGAGGUGGCCGUGGUGGAGACAG: 0.502
AGUCCUGUGCUACACAUCGUAUGUACCGAAUCGGGUUUUUGGGAAAAAGGGAAAGGGAAAGUAUUAUGUUACGCCGUUCGGAUCUGCACU: -1.77
UAAUUAUGUUUUAUUUUCUUUAAUUGCAGGACUUCAUAGACCUCACGUUGUCGAAGACUCAACGAAAGACUCCAACCGUUAUUCAUAAAC: 0.318

Series 2 — technique: RNA Bind-n-Seq; form: RNA; matrix: in vitro; tested at: not given; relative to: input RNA pool; reading: higher = stronger binding; endpoint: bound/input enrichment
Target: RING finger protein unkempt homolog, zinc fingers 1-6, GST-SBP tag (UNK, Homo sapiens, UniProt Q9C0B0, residues 30-357)
Sequence of UniProt Q9C0B0 (30-357, looked up): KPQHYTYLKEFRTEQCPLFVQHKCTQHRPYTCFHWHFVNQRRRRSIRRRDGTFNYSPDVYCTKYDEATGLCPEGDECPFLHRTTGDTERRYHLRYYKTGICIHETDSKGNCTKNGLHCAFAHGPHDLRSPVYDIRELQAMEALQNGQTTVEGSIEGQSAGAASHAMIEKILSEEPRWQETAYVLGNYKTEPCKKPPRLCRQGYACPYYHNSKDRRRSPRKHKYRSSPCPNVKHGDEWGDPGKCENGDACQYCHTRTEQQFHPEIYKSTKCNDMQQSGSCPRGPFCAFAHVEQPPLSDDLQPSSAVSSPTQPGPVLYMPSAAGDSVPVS
Setting: RNA with constant flanks, human and mouse sites, ends assumed
Shared flanks, not repeated: GGGAGUUCUACAGUCCGACGAUC … CAACAGAGGAUUGAGCAUCA
ACCAUGAAUGAUAUUGAUGCUUUUGAAUUUCAUGAAGCUUUCUCGGGUCAGAUUUUGGCAAAUUUUAAAGCCAUGGAUUCUGAUUGGUUUGCAGAAAACUACAUGGGUAGAAAAACCAAG: 0.174 ratio
CUUCCAAAAGAAGAAAACCCCACAAGUUUUCCAUUUUCUUAAAGUAGGAAAAAAUGAACAGUAAUAAUUAUGAUGAAGAUGAUAGUAGUGCUAUGGGAUGUGUGGACUGUUUAGUGUGUU: 2.31 ratio
CCAUGACCCGGUUAACACACGAGUAAACAGGCCUAGAGCUUGUCUGCUGUUUGACCUCUUUUAAGACCCGGCUGUGCUGCAUCUACAAAAUGAAGAUGACAGAGCUAGCCGAGGUCUUCA: 0.117 ratio
CAUCCAAAGGGCCGUGAUAACAUUAUUGAUCUCUUCCUUUACCAACCACAGUAUCUUAAUGCAAUUCAGACAAUGUGUCCACAUAUUCUACGCUAUUUGACUACUGCCGUCAUAACCAAC: 0.194 ratio
UUGUUUUGCUCAUUUGAAGUCAUUUGCCAUUUUUUUGGCCUUUUGUGGAACUCUGCUGCUUUUAGAAGAAUUAUGAAAAAUAAUUGCCAUCAACAAUAUUUUGAGGCAGUAAAACCCCUU: 1.48 ratio
CUCCCUGGAGGAGUCAAGGCCUUGAAGCUACCUAAUGAAGAGGCCACCACACCAUUAGACUUAGCUUUGCAAGGUGGACACUCCACACUGGUAGAAGACAUCACAAAUUUUCAGGGUAGC: 0.61 ratio
CUGUUUAUGGGAGACUAUGUGGACAGAGGAUAUUACUCUGUUGAAACAGUUACACUGCUUGUAGCUCUUAAGGUUCGUUACCGAGAGCGCAUCACCAUACUCCGAGGGAAUCACGAGAGC: 0.128 ratio
AAAAACAGGGGUGAGAUAAAGGUCAAUAUUCAGUUUAUGAGGAACAAUAUGACCGCAAGUAUGUUUGACUUAUCAAUGAAGGACAAAACCAGAUCUCCUUUUGCAAAGUUAAAAGAUAAG: 0.278 ratio
GUGUGAGCCUGCGCAGGACAGUUUCAGGUGGUUUUAAAGAACACGUGGAAAUCCCUUGAAUUUAGGACCUGGUUAACCAGAAAGAUAAGACUGUUCUUAACGACCUAGAUGAUUCUGUUC: 0.26 ratio
AUUGGGAACAAAUCAGUGGUACAAGUGAAAAACUUUUUUGUAAAUUAUCGACGCCGCUUCAACAUAGAUGAAGUUUUACAAGAAUGGGAGGCAGAACAUGGUAAAGAAGAGACCAAUGGG: 0.466 ratio
UACUUGGCAUAUCGAAAUUUUAUGAUUGACACAUACCGUCUAAACCCUCAAGAAUAUUUAACCAGCACUGCUUGCCGGCGAAACCUGACUGGAGAUGUGUGUGCUGUGAUGAGGGUUCAU: 0.269 ratio

Series 3 — technique: protein binding microarray; form: double-stranded DNA, one strand shown; matrix: in vitro; tested at: not given; relative to: not given; reading: higher = stronger binding; endpoint: E-score
Target: Histone acetyltransferase KAT6A, winged helix 2, GST fusion (KAT6A, Homo sapiens, UniProt Q92794, residues 85-181)
Setting: 8-mer, flanks averaged, mean of 2 arrays, mostly near background
Residues (chain): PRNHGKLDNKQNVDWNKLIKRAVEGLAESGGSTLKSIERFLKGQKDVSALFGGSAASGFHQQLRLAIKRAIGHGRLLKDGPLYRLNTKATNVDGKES
AACGATAT: -0.0182
TGAATGCA: 0.105
CACGTACC: -0.00443
CAACCGAA: 0.141
CCGTGGCA: 0.125
AGAGAGGG: -0.0254
GATAGCAA: 0.0985
ATTGCTTC: -0.00492
ACATTTTA: -0.0427
AGGTAGAT: -0.0151
CCCCGGGG: 0.197
CCCAATCC: 0.0484
GTTGATCA: 0.0525
CATCAGAA: 0.0586
AGGACGTA: -0.107
CGAAAAGA: 0.107
ATTATACC: 0.0402

Series 4 — technique: protein-binding microarray; form: double-stranded DNA, one strand shown; matrix: in vitro; tested at: 2200 nM top; setting: 60-bp whole probe; with: salmon DNA 0.4 mg/ml; relative to: random background probes; reading: higher = stronger binding; endpoint: fitted relative affinity; shared flanks, not repeated: GCCTAGCAC … GTCTTGATTCGCTTGACGCTGCTG
Target: Interferon regulatory factor 7, full length, phosphomimetic (IRF7, Homo sapiens, UniProt Q92985, residues 1-503, S471D/S472D/S475D/S476D/S477D/S483D/S484D/S487D)
Target sequence (chain): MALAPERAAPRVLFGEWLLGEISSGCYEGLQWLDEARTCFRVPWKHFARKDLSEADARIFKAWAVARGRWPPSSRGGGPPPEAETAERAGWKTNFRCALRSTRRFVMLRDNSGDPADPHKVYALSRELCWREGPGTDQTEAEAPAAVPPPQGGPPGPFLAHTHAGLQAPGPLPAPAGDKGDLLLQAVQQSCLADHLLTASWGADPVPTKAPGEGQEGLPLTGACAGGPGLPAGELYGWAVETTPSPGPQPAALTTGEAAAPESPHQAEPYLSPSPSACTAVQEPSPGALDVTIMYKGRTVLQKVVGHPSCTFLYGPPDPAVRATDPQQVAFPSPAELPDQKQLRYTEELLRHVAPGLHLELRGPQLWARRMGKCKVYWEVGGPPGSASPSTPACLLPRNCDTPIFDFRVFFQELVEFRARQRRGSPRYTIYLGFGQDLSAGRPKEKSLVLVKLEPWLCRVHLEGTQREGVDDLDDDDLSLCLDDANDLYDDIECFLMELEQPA
GACGGACTGGACTACCGGGACGTGCTA: -0.987 z-score
TACTGGACTGGGGTTTCCCGGTGCTAG: -0.722 z-score
TTAGATCTCAGTCTCGATAAGTGCTAG: 0.113 z-score
GACGAACTGAGTATAGAGACGTGCTAG: -0.274 z-score
ACTTTTTTTAATTGAGAAGCGTGCTAG: 0.142 z-score
TAAGGTATCGGACTGGGTTAGTGCTAG: -0.0993 z-score
GACGGTCACGGTCTCGGGACGTGCTAG: -0.845 z-score
GACGGCATCGACTATCGGGACGTGCTA: -0.671 z-score
AATAAAATGAATATTAGAAGGTGCTAG: -1.18 z-score
TTAGATATCGGGTTGCGATTAGTGCTA: 0.65 z-score
TCAATATTCATTTTATTACTGTGCTAG: 1.45 z-score
CTGTTTCTACTGTCTGTTTCCGTGCTA: 3.84 z-score
TTAGGTGTCGGGACTGGGTTAGTGCTA: -0.841 z-score
ATGGTCCTCTCTCTATTCAGGTGCTAG: 1.42 z-score
AGCCATCTGCAGCAGGCCCCGTGCTAG: -0.476 z-score
TCAGATATCGGGACTGGATTAGTGCTA: -0.102 z-score
GACGAACTGAGCCTGGAGACGTGCTAG: -0.351 z-score
TACGGTATCCTTATCCTGACGTGCTAG: 1.43 z-score
TTAGGTATGGGTTTCGGTTAGTGCTAG: 4.09 z-score
GACGGCCTGGACTATCGGGACGTGCTA: -1.11 z-score
TCATTTTTTGTAATCGAACTGTGCTAG: 1.26 z-score
GACGATCTCAGACTGGAGAAGTGCTAG: -0.29 z-score
TTAGGTATCCGGTATCGGTTAGTGCTA: 0.149 z-score
TTAGGTTTCGGACTGGGGTAGTGCTAG: 3.38 z-score
GACGGAGTGGGTCTCGGGACGTGCTAG: -0.764 z-score

Some of these lines once more (series 4):
TTAGGTGTCGGGACTGGGTTAGTGCTA: -0.841 z-score
GACGAACTGAGCCTGGAGACGTGCTAG: -0.351 z-score
GACGATCTCAGACTGGAGAAGTGCTAG: -0.29 z-score
ACTTTTTTTAATTGAGAAGCGTGCTAG: 0.142 z-score
TTAGATCTCAGTCTCGATAAGTGCTAG: 0.113 z-score
ATGGTCCTCTCTCTATTCAGGTGCTAG: 1.42 z-score
TTAGGTTTCGGACTGGGGTAGTGCTAG: 3.38 z-score
TACTGGACTGGGGTTTCCCGGTGCTAG: -0.722 z-score
GACGGAGTGGGTCTCGGGACGTGCTAG: -0.764 z-score
AGCCATCTGCAGCAGGCCCCGTGCTAG: -0.476 z-score
